Results collected from several papers.
Numbered parts are unrelated; each lists some results of a single study.

Series 1 — method: RNA Bind-n-Seq; form: RNA; matrix: in vitro; concentration: 365 nM; relative to: no-protein control; reading: higher = stronger binding
Target: RNA binding protein fox-1 homolog 2, RRM domain, GST-SBP tag (RBFOX2, Homo sapiens, UniProt O43251-10, residues 100-194)
Notes: natural RNA segment, single round, ends assumed
Target sequence (chain): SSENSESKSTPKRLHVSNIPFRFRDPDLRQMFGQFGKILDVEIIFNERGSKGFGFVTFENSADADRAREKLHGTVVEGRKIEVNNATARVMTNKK
Oligonucleotide	RBNS enrichment (R)
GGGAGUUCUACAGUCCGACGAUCCCACUCCACCACUGUCCCUGGGGGCUUUUCAGCUCCCCCAGCCCUCAGCUUCUGGACCCCAGGCUUCACCCUCAGAUUGCUGCCAGUCUUCUGCAAGCCUUUCUAGCUUUUGGAAUUCUCGGGUGCCAA	0.527
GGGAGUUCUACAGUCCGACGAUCCCUCCUUGAGACACAGAUGCCUGUGUGAGUCUCCGUUGAUACAAUUCUGAACCCCUCAGGUUCUCUGAAAGGGCACAGACCAUGGGCGUGAACAUUGUGCCGUACCUGAGUGGAAUUCUCGGGUGCCAA	4.61
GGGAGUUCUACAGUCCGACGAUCUUUAGAUUGUCUCAUCUUGUGACUUUAUAAUGCCUGUCCCCUCCACUGGUCAAUUCAGCAUAUGGAAGUAUAAAUGCAGUCUUUUUACUAGGCAGAUAUAUAUGCUAUCUUGGAAUUCUCGGGUGCCAA	0.735
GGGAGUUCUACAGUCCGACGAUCCUGGCUGUCAGUGACCAUGUGGGCAUUGAGGCUGGUCCCAGAGAUGCUCGAAAGUCAGUGAAAGCUAUGCCUUCUCAUGCUAGCCCAGCCCAGCCCACCCUGCGACUGGUUGGAAUUCUCGGGUGCCAA	0.362
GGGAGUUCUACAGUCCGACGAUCGGUGAAGGUUUUCUUUCAGUUAGGGUACUUGGCAAGGUCCAUUCUAGUGUAGCUGAAGAGGAAGCUAUACUAUUUUCUGUUUACUGUAUUUUGCUCCCUAUUUUAUGCUUUGGAAUUCUCGGGUGCCAA	0.637
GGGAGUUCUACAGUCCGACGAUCUACAGGCGUGAGCCACCACGCCCAGCCAGGGUUUUCUUUUUUAAUCCUUUCCAGAAACAGAAAGAGCUCUUAACCUCUCUGAGCUCUUUCUGCAAUUCCUUUGGGCGAUUUGGAAUUCUCGGGUGCCAA	0.389
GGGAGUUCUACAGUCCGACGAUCAGGAGGCAAAGCAGCUAUGGAAGGGCUUUUGCUGGUUAAUCAUUUCUGAGGUGAAAGACCUUCUUCUCAGGGGGCAGGCUCCACCAGGAAUGGAGGAUCAAUCGCUGUAAUGGAAUUCUCGGGUGCCAA	1.04
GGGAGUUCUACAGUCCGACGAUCAUUGGCUUAACAGAAACAGUCUGUAAAAACCUAACAGUGGUGCAAUCAUGUUGUCUGUGUUGUGUUAUGUGAGAAUUUUCUCCUAAGUCAUGCAGGUAAUGACAAUAUACUGGAAUUCUCGGGUGCCAA	0.343
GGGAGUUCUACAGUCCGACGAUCUUCCACAUCGAUCCUUGCCCUCUUCAGGCAGUACUUCAGGGCCCUCACCAGGACCCCUUAUGUAGUGUGCUAUCCUCUAAACUCCUAAGCUAAGUCACCCUGGUGUCAUUUGGAAUUCUCGGGUGCCAA	0.453

Series 2 — method: protein-binding microarray; form: double-stranded DNA, one strand shown; matrix: in vitro; concentration: 2200 nM top; notes: 60-bp whole probe; with: salmon DNA 0.4 mg/ml; relative to: random background probes; reading: higher = stronger binding; all sequences stand within: GCCTAGCAC … GTCTTGATTCGCTTGACGCTGCTG
Target: Interferon regulatory factor 7, full length, phosphomimetic (IRF7, Homo sapiens, UniProt Q92985, residues 1-503, S471D/S472D/S475D/S476D/S477D/S483D/S484D/S487D)
Residues (chain): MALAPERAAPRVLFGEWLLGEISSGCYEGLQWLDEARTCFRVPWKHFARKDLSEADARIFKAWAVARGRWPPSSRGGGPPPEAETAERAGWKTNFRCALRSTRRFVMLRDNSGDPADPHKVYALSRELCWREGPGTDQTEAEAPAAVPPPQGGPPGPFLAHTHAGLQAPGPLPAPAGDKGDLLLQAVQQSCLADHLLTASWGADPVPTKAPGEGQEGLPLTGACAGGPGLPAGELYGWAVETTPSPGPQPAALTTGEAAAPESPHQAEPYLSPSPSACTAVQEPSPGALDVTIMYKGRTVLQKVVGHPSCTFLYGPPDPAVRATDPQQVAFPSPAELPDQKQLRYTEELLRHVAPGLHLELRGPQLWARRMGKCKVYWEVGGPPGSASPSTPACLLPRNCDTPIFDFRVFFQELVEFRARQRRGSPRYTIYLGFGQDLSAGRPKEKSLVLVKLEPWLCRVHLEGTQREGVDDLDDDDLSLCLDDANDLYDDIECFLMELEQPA
Oligonucleotide	fitted relative affinity
TTAGAACTGGGGTTTCGATTTGTGCTA	6.11 z-score
TTAGATTCCAGTTTCGATTAGTGCTAG	6.9 z-score
TTAGGCCTCCTACTGCTTTAGTGCTAG	0.579 z-score
TTAGAATTCAGACTGGATTAGTGCTAG	-0.644 z-score
TCATCTCCCAGACTGGAGTGGTGCTAG	0.445 z-score
TCATTTTCATATATATAACTGTGCTAG	2.89 z-score
TTACAACTGGGGTTTCGATTAGTGCTA	3.08 z-score
TCAGTTTTACAGGTTCTCACTGTGCTA	1.25 z-score
GACGACATCAGTTTCGAGACGTGCTAG	3.21 z-score
TCATCTCTGGGTCGGGCACTGTGCTAG	0.304 z-score
CTCTCTTCACATATAATTTTGTGCTAG	1.5 z-score
TTAGATCTCATTCTCGATTAGTGCTAG	0.895 z-score
TCAATATTCACTATAGTACTGTGCTAG	1.17 z-score
GACGGTTTCATTCTCCTGACGTGCTAG	3.88 z-score
TTAGGACTACTTTTCCTTTAGTGCTAG	2.21 z-score
TTAGGTATCGTTTTCGGTTAGTGCTAG	6.9 z-score
TCATCTCTCTATTCAGAACTGTGCTAG	1.39 z-score
TTAGGTTTCGGTTTCGGTAAGTGCTAG	14.1 z-score
TTAGATTTAAGTCTCGATTAGTGCTAG	-0.214 z-score

Series 3 — method: universal PBM; form: double-stranded DNA, one strand shown; matrix: in vitro; concentration: 600 nM; reading: higher = stronger binding
Target: Sal-like protein 4, full length isoform A (SALL4, Homo sapiens, UniProt Q9UJQ4, residues 1-1053)
Sequence of UniProt Q9UJQ4 (whole entry, looked up): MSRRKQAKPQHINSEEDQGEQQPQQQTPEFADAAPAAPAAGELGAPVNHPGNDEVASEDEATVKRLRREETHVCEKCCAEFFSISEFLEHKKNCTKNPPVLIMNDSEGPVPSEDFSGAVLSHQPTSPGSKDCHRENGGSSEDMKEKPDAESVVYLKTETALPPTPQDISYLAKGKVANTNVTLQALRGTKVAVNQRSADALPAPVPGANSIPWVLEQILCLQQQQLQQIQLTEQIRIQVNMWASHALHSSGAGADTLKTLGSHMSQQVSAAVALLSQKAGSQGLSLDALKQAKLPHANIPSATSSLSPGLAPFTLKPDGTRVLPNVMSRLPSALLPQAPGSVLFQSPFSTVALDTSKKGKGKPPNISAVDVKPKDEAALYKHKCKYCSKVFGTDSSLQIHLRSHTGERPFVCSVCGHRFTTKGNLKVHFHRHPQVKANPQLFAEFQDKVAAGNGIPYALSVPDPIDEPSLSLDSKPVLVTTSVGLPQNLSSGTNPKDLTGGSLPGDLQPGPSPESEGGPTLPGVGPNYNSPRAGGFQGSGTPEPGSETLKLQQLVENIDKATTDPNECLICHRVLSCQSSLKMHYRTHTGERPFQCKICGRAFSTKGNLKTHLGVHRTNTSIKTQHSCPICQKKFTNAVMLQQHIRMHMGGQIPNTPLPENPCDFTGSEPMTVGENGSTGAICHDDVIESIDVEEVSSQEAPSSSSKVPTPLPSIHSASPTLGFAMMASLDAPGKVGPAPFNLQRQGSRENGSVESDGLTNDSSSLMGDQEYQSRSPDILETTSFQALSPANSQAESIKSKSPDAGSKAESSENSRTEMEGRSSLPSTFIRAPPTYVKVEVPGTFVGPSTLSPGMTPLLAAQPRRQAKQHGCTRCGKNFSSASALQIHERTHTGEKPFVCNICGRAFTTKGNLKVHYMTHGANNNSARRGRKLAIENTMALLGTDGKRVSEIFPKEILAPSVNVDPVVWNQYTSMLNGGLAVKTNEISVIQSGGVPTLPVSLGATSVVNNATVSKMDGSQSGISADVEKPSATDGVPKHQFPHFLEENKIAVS
Notes: 8-mer, flanks averaged, mean of replicates
Oligonucleotide	E-score
CGTCTTTA	0.0708
AGATGGTC	-0.202
GATTGTCC	-0.0916
CTTGCGTC	-0.21
ATTGGATA	0.186
GCTTTGGA	-0.00145
CCTATTTA	0.189
CAGGCCTC	-0.281
AGGATCTG	-0.209
GAGTAGTA	0.121
AATTCTGT	0.212
ACCGGCCA	-0.333
ACAAAGTG	-0.0507
GGTCATTA	0.0397
TAAGTAAA	0.284
ATCGTCAA	0.127
ACTCCAGG	-0.219
CTATTTAA	0.255
ATTTTGCC	0.198
GGCATGGA	-0.0932
AACAATAA	0.424
CTTTGGGC	-0.195
ATTGTAGG	0.285

Series 4 — method: RNA Bind-n-Seq; form: RNA; matrix: in vitro; concentration: not given; relative to: input RNA pool; reading: higher = stronger binding
Target: RING finger protein unkempt homolog, zinc fingers 1-6, GST-SBP tag (UNK, Homo sapiens, UniProt Q9C0B0, residues 30-357)
Sequence of UniProt Q9C0B0 (30-357, looked up): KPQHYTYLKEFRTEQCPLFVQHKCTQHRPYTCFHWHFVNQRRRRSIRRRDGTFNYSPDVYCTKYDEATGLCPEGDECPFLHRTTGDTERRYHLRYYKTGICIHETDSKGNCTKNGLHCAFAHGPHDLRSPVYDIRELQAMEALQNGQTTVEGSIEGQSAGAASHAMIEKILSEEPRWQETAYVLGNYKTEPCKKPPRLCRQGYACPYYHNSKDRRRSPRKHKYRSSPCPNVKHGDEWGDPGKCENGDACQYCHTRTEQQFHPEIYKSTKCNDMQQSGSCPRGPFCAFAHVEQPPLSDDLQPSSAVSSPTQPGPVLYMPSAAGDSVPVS
Notes: RNA with constant flanks, human-mouse chimeric sites, ends assumed
Oligonucleotide	bound/input enrichment [ratio]
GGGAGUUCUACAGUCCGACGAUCGAGUCGAGCAAACUUGAAACAAUUCGUUAUCUUGCAGCCUCAGUGUUUUUACUUGCCGCGAUAGCAUUGGGGUUUUAUAGGUUCUGGAAGGAGAACUGACGAUGAUGCUGCCGCUGCUGCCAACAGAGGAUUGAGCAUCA	0.182
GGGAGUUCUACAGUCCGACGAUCAGCACAACCCCAGCAAAGCUCAGGAACCCUUGUACAAGUGAACAAAACUGCACCAGCCCAUUUAGCUACAAAAAUGUGCUUAGUCUUACUAAUAAAGGAGAGUUUUUCAAUGAACUUGUUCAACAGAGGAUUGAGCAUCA	0.621
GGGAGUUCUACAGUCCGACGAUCCGCUGGCCCAAGCUGAUGGACUCUGAUGGCCUCCAUCAAGGUAUUAUGUGUGCCUUCUCUUAGUCCCUUCUGGGUUGAUGUUAUGAAUCUCAGUACUGUGGUUUGAAAGCACCAGCUUUGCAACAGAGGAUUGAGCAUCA	0.466
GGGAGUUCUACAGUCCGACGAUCAGAAUCUUGGGACUGUUUUACUUAAUUGGUCAUUGAUAGCUUAACAAACAUGGAGAUGAGAUUAGAAAUCUUGACAUCAACAAGUAUUAAGCAGAAAAAACCAUGGCCACGUGUCUCCUGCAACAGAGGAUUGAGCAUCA	0.121
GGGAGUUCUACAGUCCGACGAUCGUAGCUGGGACUACAGAAAUGCUGGUAAUUUCAGUCACUUGCUGAUGACUUCUGAUGACCUAGCAAAUGUUGGCAUUGUUGACUGCUCUGUGAAGACUUCUGAGGACCCACGUCUAAGGUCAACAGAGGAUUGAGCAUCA	0.131
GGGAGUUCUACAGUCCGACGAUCUCCCAAAUCCAGCAGCUAGAAGGAGCCAAUUGUUUGUGCCUGGAAAUACAGGGAAGGCGAUAACAUUGUACAUUGGUUUACAUUUUUUCCCCCUGUGGAUUUUUCUAGAGGUCAUAGUGCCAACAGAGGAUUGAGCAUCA	0.797
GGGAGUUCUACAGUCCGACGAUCAAAGAGUGGAUAGAGUGUGCACACGGGAUCGGUGGGACUCGGGCAGAAAAGGAGUGCAAGAUAGAGUUCGAUGACUUCGUAGAGUGUUUGCUUCGGUACAAAACGAUGAGGCGAAUGCAUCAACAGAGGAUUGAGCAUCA	0.351
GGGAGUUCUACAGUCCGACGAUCGUGACUGGUGUUAAGAUUUCCCCUCAGCAAAGAAGUGCAGUAGUCACCAUAAUUCCAUCUGUGGUGAAUGCCAAUCAGAUUGUGGAGCUGGUCCCAGACCUCAGUUUAGACAUGGGAACUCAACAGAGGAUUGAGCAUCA	0.257
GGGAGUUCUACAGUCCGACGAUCACCUCCCCCUCCCGCCUCACCCCACCCCCGCUUUUUGGAAAGUUUUUGGCGUUUCUUUUUUUUAGAAAUACAAAGUGAUUACAGUUUAGAGUCUAUGGGUCUAUCGAAGGGCUUGACGGACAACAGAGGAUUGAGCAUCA	1.47
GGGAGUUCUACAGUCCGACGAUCGGAAGUACAAUGAUGGAGAUUGAUGGUGACAAAGGCAAGCAGGGCGGUCCCACCUACUACAUAGACACCAAUGCCCUCCGCGUGCCCAGGGAGAACAUGGAGGCCAUUUCACCUCUAAAGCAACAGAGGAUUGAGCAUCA	0.3
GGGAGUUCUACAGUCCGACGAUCGCGGCAGAAUCAUGGAGGACAUGAUGGACUUGCCCAGAGCGCGCGUCAACGCCAGCAUGUUACCACAGUAUAUCGACCGGCCCGUGUGCUUCGUGGGGAAGCUGGAAAAGAUUCAUCCCACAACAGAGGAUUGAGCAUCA	0.143

Repeated from above (series 2):
Oligonucleotide	fitted relative affinity
TTAGAACTGGGGTTTCGATTTGTGCTA	6.11 z-score
TTAGATTCCAGTTTCGATTAGTGCTAG	6.9 z-score
TTAGGCCTCCTACTGCTTTAGTGCTAG	0.579 z-score
TTAGAATTCAGACTGGATTAGTGCTAG	-0.644 z-score
TCATCTCCCAGACTGGAGTGGTGCTAG	0.445 z-score
TCATTTTCATATATATAACTGTGCTAG	2.89 z-score
TTACAACTGGGGTTTCGATTAGTGCTA	3.08 z-score
TCAGTTTTACAGGTTCTCACTGTGCTA	1.25 z-score
GACGACATCAGTTTCGAGACGTGCTAG	3.21 z-score
